Experimental data collected from several papers.
Lines come from different studies, so protocols differ. Several values in a cell are separate wells, animals, samples, runs or records. ± gives the spread as reported.

SMILES = C=CC(=O)N1CCC[C@@H](n2nc(-c3ccc(Oc4ccccc4)cc3)c3c(N)ncnc32)C1; system = male Wistar rat, kidney; conditions = oral, 50 mg/kg; Tmax = 1 h
SMILES = Cc1cc(-c2ccc3cc[nH]c(=O)c3c2)ccc1O[C@H]1O[C@H](CO)[C@@H](O)[C@H](O)[C@@H]1O; system = Sprague-Dawley rat, male, plasma; conditions = intravenous, 3 mg/kg; Tmax = 0.083 h
SMILES = CCc1cc(C(=O)NC)c2nccc(N3CCc4c(cc(Cn5ccnc5)cc4-c4cn(C)nc4C(F)(F)F)C3=O)c2c1; system = Sprague Dawley rat, male, bile duct-cannulated, plasma; conditions = oral, 50 mg/kg; Tmax = 2.3 h
SMILES = C=CC(=O)N1CCC(Oc2cc3c(Nc4ccc(Cl)c(Cl)c4F)ncnc3cc2OC)CC1; system = Sprague-Dawley rat, male, plasma; conditions = oral, 2 mg/kg, together with: vehicle pretreatment; Tmax = 0.67 ± 0.26 h
SMILES = CCCCCCCCc1ccc(CCC(N)(CO)CO)cc1; system = male Sprague-Dawley rat, heart; conditions = oral, 1 mg/kg, single dose; Tmax = 8 h
SMILES = CSc1ccccc1C(=O)NCCn1cc(C(=O)NCc2cccc(C)n2)c(=O)c2cc3c(cc21)OC(F)(F)O3; system = Sprague-Dawley rat, male, plasma; conditions = intramuscular, 10 mg/kg of parent drug; Tmax = 1.03 ± 0.55 h
SMILES = OCC1=C[C@@H](O)[C@@H]2C=CO[C@@H](O[C@@H]3O[C@H](CO)[C@@H](O)[C@H](O)[C@H]3O)[C@H]12; system = rat, plasma; conditions = oral, 500 mg/kg Eu + 217 mg/kg Pc extract, dosed as combined Eu and Pc extracts; Tmax = 2.17 ± 1.26 h
SMILES = O=C1c2ccncc2C(=O)c2c1[nH]c1ccccc21; system = Sprague-Dawley rat, female, plasma; conditions = intravenous, 5 mg/kg; Tmax = 0.08 h
SMILES = O=C(O)C1=CO[C@@H](O[C@@H]2O[C@H](CO)[C@@H](O)[C@H](O)[C@H]2O)[C@@H]2C(CO)=CC[C@H]12; system = rat, plasma; conditions = oral, 500 mg/kg Eu + 217 mg/kg Pc extract, dosed as combined Eu and Pc extracts; Tmax = 3 ± 0.87 h
SMILES = COc1cc2nccc(Oc3ccc(NC(=O)NC4CC4)c(Cl)c3)c2cc1C(N)=O; assay = UPLC-MS/MS; system = Sprague-Dawley rat, male, plasma; conditions = oral, 10 mg/kg, without azole co-treatment; Tmax = 0.92 ± 0.2 h
SMILES = CC(=O)CC(c1ccccc1)c1c(O)c2ccccc2oc1=O (centres unmarked); system = Sprague-Dawley rat, male, plasma; conditions = oral, 0.3 mg/kg/day, 1 week, without PNS; Tmax = 2.2 ± 0.37 h
SMILES = CCCc1c(-c2ccc(O)cc2)nn(-c2ccc(O)cc2)c1-c1ccc(O)cc1; assay = refers to: total aglycone; system = rat, Long-Evans, female, serum; conditions = subcutaneous, 2 mg/kg single dose; Tmax = 1 h
SMILES = Cc1cccc(CNC(=O)c2cn(CCNC(=O)c3ccccc3Sc3c([N+](=O)[O-])ncn3C)c3cc4c(cc3c2=O)OC(F)(F)O4)n1; system = Sprague-Dawley rat, male, whole blood; conditions = intramuscular, 30 mg/kg of parent drug; Tmax = 0.19 ± 0.06 h
SMILES = CC(C)c1nc(N(C)S(C)(=O)=O)nc(-c2ccc(F)cc2)c1/C=C/[C@@H](O)C[C@@H](O)CC(=O)O; system = Wistar albino rat, both sexes, plasma; conditions = oral, 20 mg/kg; Tmax = 2.5 h and 3 h and 5.5 h and 1 h
SMILES = O=C1c2ccccc2C(=O)N1CCCN1CCN(C(c2ccc(F)cc2)c2ccc(F)cc2)CC1; system = Sprague-Dawley rat, male, whole blood; conditions = oral, 10 mg/kg; Tmax = 1.01 h
SMILES = Cc1cccc(CNC(=O)c2cn(CCNC(=O)c3ccccc3S)c3cc4c(cc3c2=O)OC(F)(F)O4)n1; system = Sprague-Dawley rat, male, plasma; conditions = intravenous, 5 mg/kg of parent drug; Tmax = 0.083 h
SMILES = O=C(O)CCSC[C@H]1O[C@@H]2O[C@H]3[C@H](O)[C@@H](O)[C@@H](O[C@H]4[C@H](O)[C@@H](O)[C@@H](O[C@H]5[C@H](O)[C@@H](O)[C@@H](O[C@H]6[C@H](O)[C@@H](O)[C@@H](O[C@H]7[C@H](O)[C@@H](O)[C@@H](O[C@H]8[C@H](O)[C@@H](O)[C@@H](O[C@H]9[C@H](O)[C@@H](O)[C@@H](O[C@H]1[C@H](O)[C@H]2O)O[C@@H]9CSCCC(=O)O)O[C@@H]8CSCCC(=O)O)O[C@@H]7CSCCC(=O)O)O[C@@H]6CSCCC(=O)O)O[C@@H]5CSCCC(=O)O)O[C@@H]4CSCCC(=O)O)O[C@@H]3CSCCC(=O)O; system = Sprague Dawley rat, plasma; conditions = intranasal, 5 mg/kg, together with: rocuronium bromide IV; Tmax = 0.7 h
SMILES = N=C(N)NCCNC(=O)C1(Nc2ccccc2)CCN(Cc2ccccc2)CC1; system = female Sprague-Dawley rats, plasma; conditions = oral gavage, 50 mg/kg, first sampling point; Tmax = 0.0833 h
SMILES = O=c1oc2c(O)c(O)cc3c(=O)oc4c(O)c(O)cc1c4c23; system = rat, plasma; conditions = oral, 1000 mg/kg extract, possible metabolite or extract component; Tmax = 1.33 ± 0.33 h
SMILES = CNC(=O)c1cccc(-c2ccc(O[C@H]3O[C@H](CO)[C@@H](O)[C@H](O)[C@@H]3O)c(C)c2)c1; system = Sprague-Dawley rat, male, plasma; conditions = oral, 10 mg/kg; Tmax = 0.25 h and 2 h
SMILES = COC(=O)C1=CO[C@@H](O[C@@H]2O[C@H](CO)[C@@H](O)[C@H](O)[C@H]2O)[C@@H]2C(CO)=CC[C@H]12; system = rat, plasma; conditions = oral, 500 mg/kg Eu extract, dosed as Eu extract; Tmax = 0.5 h
SMILES = C=CC(=O)N1CCC([C@@H]2CCNc3c(C(N)=O)c(-c4ccc(Oc5ccccc5)cc4)nn32)CC1; system = Sprague-Dawley rats, plasma; conditions = oral, 16 mg/kg, together with: posaconazole 40 mg/kg; Tmax = 1.15 ± 1.06 h
SMILES = Nc1nc(O)c2ncn(COC(CO)CO)c2n1; system = Sprague-Dawley rat, male; conditions = oral, 10 mg/kg; Tmax = 1.08 ± 0.583 h
SMILES = C1=C/COCc2cc(ccc2OCCN2CCCC2)Nc2nccc(n2)-c2cccc(c2)COC/1; assay = LC-MS/MS; system = Sprague-Dawley rat, male, plasma; conditions = oral, 36 mg/kg, together with: isavuconazole 20 mg/kg oral; Tmax = 7.33 ± 2.07 h
SMILES = CNC(=O)c1cccc(-c2ccc([C@@H](O)[C@H]3O[C@H](CO)[C@@H](O)[C@H](O)[C@@H]3O)c(C)c2)c1; system = male Sprague-Dawley rat, plasma; conditions = oral, 10 mg/kg, group mean; Tmax = 0.667 h
SMILES = CN1CCC[C@H](CN2c3ccccc3Sc3ccccc32)C1.Cl; system = Wistar rat female, skin; conditions = oral, 16 mg/kg; Tmax = 8 h

A few entries again:
SMILES = CNC(=O)c1cccc(-c2ccc(O[C@H]3O[C@H](CO)[C@@H](O)[C@H](O)[C@@H]3O)c(C)c2)c1; system = Sprague-Dawley rat, male, plasma; conditions = oral, 10 mg/kg; Tmax = 0.25 h and 2 h
SMILES = CCCCCCCCc1ccc(CCC(N)(CO)CO)cc1; system = male Sprague-Dawley rat, heart; conditions = oral, 1 mg/kg, single dose; Tmax = 8 h
SMILES = O=C1c2ccccc2C(=O)N1CCCN1CCN(C(c2ccc(F)cc2)c2ccc(F)cc2)CC1; system = Sprague-Dawley rat, male, whole blood; conditions = oral, 10 mg/kg; Tmax = 1.01 h
